Published values pooled from the literature.
Each numbered part is a random draw from the data of one study; scales do not carry over between parts.
Sequence of UniProt P10721 (whole entry, unmodified, looked up): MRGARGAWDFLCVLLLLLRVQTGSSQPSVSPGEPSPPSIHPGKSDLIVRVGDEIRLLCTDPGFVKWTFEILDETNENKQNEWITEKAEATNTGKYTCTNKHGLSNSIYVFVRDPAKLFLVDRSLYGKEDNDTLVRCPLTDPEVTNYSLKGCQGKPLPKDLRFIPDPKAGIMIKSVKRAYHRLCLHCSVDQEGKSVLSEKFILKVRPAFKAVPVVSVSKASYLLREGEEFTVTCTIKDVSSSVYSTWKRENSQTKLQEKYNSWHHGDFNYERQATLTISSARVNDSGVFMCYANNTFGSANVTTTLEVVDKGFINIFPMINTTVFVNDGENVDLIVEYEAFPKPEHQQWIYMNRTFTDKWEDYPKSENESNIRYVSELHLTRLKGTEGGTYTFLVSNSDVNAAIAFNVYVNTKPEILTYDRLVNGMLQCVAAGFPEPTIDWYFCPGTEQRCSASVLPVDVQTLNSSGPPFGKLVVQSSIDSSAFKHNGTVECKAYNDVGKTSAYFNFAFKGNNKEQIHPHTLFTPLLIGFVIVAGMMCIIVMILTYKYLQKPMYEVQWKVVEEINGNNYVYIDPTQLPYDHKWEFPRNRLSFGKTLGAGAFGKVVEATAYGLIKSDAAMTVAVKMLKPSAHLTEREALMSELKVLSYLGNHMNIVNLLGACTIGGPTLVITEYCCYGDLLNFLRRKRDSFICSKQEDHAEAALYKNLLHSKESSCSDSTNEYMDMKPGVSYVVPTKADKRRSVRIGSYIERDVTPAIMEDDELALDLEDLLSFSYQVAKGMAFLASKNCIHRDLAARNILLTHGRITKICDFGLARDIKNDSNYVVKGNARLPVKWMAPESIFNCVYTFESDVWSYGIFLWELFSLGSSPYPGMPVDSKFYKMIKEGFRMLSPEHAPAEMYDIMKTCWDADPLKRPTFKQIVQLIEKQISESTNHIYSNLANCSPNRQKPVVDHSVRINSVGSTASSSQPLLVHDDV
Sequence of UniProt Q9BQI3 (whole entry, looked up): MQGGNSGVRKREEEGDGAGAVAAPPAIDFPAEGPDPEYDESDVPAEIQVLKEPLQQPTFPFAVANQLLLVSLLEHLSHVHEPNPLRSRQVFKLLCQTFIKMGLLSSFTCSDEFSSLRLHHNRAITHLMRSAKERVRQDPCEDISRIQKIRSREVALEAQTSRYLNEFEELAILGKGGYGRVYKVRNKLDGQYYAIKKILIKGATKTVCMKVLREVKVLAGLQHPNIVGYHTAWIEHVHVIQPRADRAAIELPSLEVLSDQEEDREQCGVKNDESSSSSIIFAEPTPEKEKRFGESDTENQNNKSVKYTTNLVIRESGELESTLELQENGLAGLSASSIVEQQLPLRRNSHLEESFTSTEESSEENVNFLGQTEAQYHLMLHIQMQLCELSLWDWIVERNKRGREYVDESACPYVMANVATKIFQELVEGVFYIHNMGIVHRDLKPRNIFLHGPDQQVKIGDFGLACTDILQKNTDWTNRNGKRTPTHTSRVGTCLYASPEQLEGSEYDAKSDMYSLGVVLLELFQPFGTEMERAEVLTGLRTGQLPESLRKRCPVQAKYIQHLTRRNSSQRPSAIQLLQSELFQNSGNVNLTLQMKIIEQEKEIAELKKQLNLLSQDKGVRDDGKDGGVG
Sequence of UniProt Q9P289 (whole entry, looked up): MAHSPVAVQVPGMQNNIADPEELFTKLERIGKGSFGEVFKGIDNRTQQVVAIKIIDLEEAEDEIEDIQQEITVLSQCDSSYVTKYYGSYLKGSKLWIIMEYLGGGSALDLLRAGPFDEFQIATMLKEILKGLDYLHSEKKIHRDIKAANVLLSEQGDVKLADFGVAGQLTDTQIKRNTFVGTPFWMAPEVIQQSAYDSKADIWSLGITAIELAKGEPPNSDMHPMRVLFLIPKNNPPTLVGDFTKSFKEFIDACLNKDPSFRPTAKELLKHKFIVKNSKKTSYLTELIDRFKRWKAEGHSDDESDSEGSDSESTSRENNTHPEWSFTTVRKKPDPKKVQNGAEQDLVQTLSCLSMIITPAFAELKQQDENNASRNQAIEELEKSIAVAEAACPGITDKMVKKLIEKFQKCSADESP
Sequence of UniProt Q13554 (whole entry, looked up): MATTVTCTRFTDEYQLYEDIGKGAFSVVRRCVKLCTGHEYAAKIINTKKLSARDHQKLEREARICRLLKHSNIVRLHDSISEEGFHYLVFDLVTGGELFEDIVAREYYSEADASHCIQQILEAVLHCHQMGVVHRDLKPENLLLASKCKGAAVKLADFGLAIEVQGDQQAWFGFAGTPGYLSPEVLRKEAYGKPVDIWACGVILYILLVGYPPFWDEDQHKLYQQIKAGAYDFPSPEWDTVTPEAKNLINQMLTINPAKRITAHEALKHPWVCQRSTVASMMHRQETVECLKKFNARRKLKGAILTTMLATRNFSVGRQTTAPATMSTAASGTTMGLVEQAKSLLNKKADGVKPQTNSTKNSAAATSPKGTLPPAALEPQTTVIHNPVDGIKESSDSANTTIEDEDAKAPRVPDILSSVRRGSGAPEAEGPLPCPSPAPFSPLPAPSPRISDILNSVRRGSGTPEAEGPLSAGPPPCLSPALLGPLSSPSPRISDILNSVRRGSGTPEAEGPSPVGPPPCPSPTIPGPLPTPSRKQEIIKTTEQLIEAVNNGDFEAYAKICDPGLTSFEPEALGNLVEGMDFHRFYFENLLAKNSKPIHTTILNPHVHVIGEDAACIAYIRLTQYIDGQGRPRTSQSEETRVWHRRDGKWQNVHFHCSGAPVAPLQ
Sequence of UniProt P29322 (whole entry, looked up): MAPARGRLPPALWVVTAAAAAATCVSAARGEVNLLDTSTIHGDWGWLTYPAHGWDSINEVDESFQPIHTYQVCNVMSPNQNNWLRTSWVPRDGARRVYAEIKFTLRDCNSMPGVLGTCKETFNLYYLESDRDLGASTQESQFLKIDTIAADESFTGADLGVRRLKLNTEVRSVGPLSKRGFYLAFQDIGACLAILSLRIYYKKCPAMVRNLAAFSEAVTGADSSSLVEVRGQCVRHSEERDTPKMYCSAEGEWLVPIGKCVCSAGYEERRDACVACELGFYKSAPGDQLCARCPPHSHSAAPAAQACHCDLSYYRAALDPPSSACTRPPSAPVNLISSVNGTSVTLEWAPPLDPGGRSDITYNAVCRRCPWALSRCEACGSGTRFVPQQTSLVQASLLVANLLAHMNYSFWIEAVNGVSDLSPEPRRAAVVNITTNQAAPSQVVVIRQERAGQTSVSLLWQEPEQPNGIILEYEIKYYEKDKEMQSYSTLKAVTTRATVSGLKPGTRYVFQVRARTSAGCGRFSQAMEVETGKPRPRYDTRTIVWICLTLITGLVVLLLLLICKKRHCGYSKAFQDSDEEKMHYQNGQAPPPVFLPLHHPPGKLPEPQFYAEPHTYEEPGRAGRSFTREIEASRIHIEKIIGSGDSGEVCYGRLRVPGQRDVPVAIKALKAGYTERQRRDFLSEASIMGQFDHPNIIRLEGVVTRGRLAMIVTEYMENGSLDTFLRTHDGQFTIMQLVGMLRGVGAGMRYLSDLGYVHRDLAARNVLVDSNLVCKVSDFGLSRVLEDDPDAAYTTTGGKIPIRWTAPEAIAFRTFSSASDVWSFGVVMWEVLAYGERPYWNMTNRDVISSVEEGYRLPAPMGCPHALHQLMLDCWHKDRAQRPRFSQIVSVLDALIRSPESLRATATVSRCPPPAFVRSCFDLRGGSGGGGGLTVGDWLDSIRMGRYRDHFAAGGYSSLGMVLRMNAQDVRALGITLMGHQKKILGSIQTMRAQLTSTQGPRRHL
Sequence of UniProt P49336 (whole entry, looked up): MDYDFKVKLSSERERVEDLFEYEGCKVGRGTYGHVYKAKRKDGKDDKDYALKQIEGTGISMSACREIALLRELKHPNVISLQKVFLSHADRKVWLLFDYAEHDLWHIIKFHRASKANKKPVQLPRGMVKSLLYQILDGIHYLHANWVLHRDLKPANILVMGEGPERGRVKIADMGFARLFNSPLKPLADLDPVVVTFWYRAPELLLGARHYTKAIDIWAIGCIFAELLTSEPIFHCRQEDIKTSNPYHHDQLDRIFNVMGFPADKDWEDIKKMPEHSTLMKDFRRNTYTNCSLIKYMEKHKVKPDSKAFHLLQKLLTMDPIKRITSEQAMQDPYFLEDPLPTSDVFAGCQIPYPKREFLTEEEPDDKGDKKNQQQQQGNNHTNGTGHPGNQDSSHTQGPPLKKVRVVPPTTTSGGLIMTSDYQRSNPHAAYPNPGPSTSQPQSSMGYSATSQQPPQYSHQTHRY
Sequence of UniProt Q9NRH2 (whole entry, looked up): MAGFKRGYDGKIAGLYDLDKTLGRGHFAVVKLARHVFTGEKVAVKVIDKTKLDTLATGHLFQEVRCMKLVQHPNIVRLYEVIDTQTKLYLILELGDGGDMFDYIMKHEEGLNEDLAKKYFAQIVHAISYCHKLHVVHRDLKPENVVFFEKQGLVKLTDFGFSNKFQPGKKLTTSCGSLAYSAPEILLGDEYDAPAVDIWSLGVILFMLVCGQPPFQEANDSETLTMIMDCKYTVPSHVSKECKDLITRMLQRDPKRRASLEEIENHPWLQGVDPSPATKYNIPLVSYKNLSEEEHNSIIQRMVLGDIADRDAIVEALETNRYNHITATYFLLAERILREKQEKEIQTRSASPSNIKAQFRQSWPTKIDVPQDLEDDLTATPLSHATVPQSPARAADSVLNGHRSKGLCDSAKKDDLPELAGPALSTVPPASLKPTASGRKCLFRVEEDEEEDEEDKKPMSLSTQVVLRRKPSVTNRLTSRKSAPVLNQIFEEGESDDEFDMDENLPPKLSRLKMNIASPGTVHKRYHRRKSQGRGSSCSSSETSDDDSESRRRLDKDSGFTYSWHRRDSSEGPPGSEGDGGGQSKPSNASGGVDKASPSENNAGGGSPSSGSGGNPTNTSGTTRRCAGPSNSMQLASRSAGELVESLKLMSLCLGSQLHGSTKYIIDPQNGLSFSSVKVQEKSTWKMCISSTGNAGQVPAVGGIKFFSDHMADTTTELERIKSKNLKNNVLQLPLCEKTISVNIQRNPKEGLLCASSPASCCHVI

Sample 1
SMILES: CC(=O)N[C@@H](Cc1c[nH]c2ccccc12)C(=O)N[C@@H](CCC(=O)C=[N+]=[N-])C(=O)OC(C)C
Dose: dose not given
Baseline: vehicle
| refers to | host | sample | log2 fold change |
| --- | --- | --- | --- |
| 3'-dephospho-CoA-glutathione* | mouse, EL4 tumour-bearing | EL4 tumour | -0.151 |
| maltose | mouse, EL4 tumour-bearing | EL4 tumour | 0.955 |
| 5-methyl-2'-deoxycytidine | mouse, EL4 tumour-bearing | EL4 tumour | 0.409 |
| 3'-CMP | mouse, EL4 tumour-bearing | EL4 tumour | 1.22 |
| levulinate | mouse, EL4 tumour | tumour | -0.0868 |
| gamma-glutamyltyrosine | mouse, EL4 tumour-bearing | EL4 tumour | -0.287 |
| S-adenosylmethionine | Mus musculus | EL4 tumour | -0.685 |

Sample 2
Technique: PRP chromatography
Setting: linear fit, 1 mL
| Compound | logD 1,9-decadiene/water [log units] |
| --- | --- |
| CC(C)C[C@@H]1NC(=O)[C@H](CC(C)C)NC(=O)[C@H](CC(C)C)NC(=O)[C@H](C(C)C)NC(=O)[C@H](C(C)C)NC(=O)[C@H](Cc2cscn2)NC(=O)[C@H](C)NC1=O | -2.15 |
| CC(C)C[C@@H]1NC(=O)[C@H](C)NC(=O)[C@H](CC(C)C)NC(=O)[C@@H](CC(C)C)NC(=O)[C@H](CC(C)C)NC(=O)[C@H](C(C)C)NC(=O)[C@H](CCC(=O)N2CCCC2)NC1=O | -0.687 |
| CC(C)C[C@@H]1NC(=O)[C@H](C)NC(=O)[C@H](CC(C)C)NC(=O)[C@@H](CC(C)C)NC(=O)[C@H](CC(C)C)NC(=O)[C@@H](C)NC(=O)[C@H](CCC(=O)N2CCCC2)NC1=O | 1.54 |
| CC(C)C[C@@H]1NC(=O)[C@H](C(C)C)NC(=O)[C@@H](CC(C)C)NC(=O)[C@@H](CC(C)C)NC(=O)[C@@H](Cc2cscn2)NC(=O)[C@H](CC(C)C)NC(=O)[C@@H](CC(C)C)NC1=O | 1.09 |
| CC(C)C[C@@H]1NC(=O)[C@H](C(C)C)NC(=O)[C@H](Cc2cscn2)NC(=O)[C@@H](CC(C)C)NC(=O)[C@H](C(C)C)NC(=O)[C@H](CC(C)C)NC(=O)[C@@H](CC(C)C)NC1=O | 0.604 |
| CC(C)C[C@@H]1NC(=O)[C@H](C)NC(=O)[C@H](CCC(=O)N2CCCC2)NC(=O)[C@H](CC(C)C)NC(=O)[C@H](C(C)C)NC(=O)[C@H](CC(C)C)NC(=O)[C@@H](CC(C)C)NC1=O | 0.662 |
| CC(C)C[C@@H]1NC(=O)[C@H](C)NC(=O)[C@H](C(C)C)NC(=O)[C@H](C)NC(=O)[C@H](C)NC(=O)[C@H](CC(C)C)NC(=O)[C@H](CC(C)C)NC1=O | -2.32 |
| CC(C)C[C@@H]1NC(=O)[C@H](C)NC(=O)[C@H](CC(C)C)NC(=O)[C@@H](CCC(=O)N2CCCC2)NC(=O)[C@H](CC(C)C)NC(=O)[C@@H](CC(C)C)NC(=O)[C@H](CC(C)C)NC1=O | -0.54 |
| CC(C)C[C@@H]1NC(=O)[C@H](C)NC(=O)[C@@H](CC(C)C)NC(=O)[C@@H](CC(C)C)NC(=O)[C@@H](Cc2cscn2)NC(=O)[C@H](CC(C)C)NC(=O)[C@@H](CC(C)C)NC1=O | 0.924 |

Sample 3
Structure (SMILES): CO[C@@H](C)c1c(Nc2ccc([C@@H](N(C)C(=O)C3CCS(=O)(=O)CC3)C(F)(F)F)cc2)cnc2cc(Cl)nn12
Effect on: cell-free assay
Technique: competition with immobilised ligand
Concentration: 1 µM
| target | remaining binding |
| --- | --- |
| Serine/threonine-protein kinase ULK3 (ULK3, Homo sapiens, UniProt Q6PHR2) | 97% |
| Non-receptor tyrosine-protein kinase TYK2, JH1 (TYK2, Homo sapiens, UniProt P29597) | 98% |
| Ribosomal protein S6 kinase beta-1 (RPS6KB1, Homo sapiens, UniProt P23443) | 90% |
| SNF-related serine/threonine-protein kinase (SNRK, Homo sapiens, UniProt Q9NRH2) | 100% |
| Ribosomal protein S6 kinase alpha-6, N-terminal kinase domain (RPS6KA6, Homo sapiens, UniProt Q9UK32) | 100% |
| Calcium/calmodulin-dependent protein kinase type II subunit beta (CAMK2B, Homo sapiens, UniProt Q13554) | 96% |
| Mast/stem cell growth factor receptor Kit (KIT, Homo sapiens, UniProt P10721, V559D/V654A) | 88% |
| Receptor-type tyrosine-protein kinase FLT3 (FLT3, Homo sapiens, UniProt P36888, D835V) | 52% |
| Ephrin type-A receptor 8 (EPHA8, Homo sapiens, UniProt P29322) | 91% |
| Epidermal growth factor receptor (EGFR, Homo sapiens, UniProt P00533, del746-750) | 100% |
| Serine/threonine-protein kinase N2 (PKN2, Homo sapiens, UniProt Q16513) | 88% |
| Serine/threonine-protein kinase 26 (STK26, Homo sapiens, UniProt Q9P289) | 100% |
| Epidermal growth factor receptor (EGFR, Homo sapiens, UniProt P00533, L861Q) | 100% |
| Mitogen-activated protein kinase kinase kinase 2 (MAP3K2, Homo sapiens, UniProt Q9Y2U5) | 100% |
| Discoidin domain-containing receptor 2 (DDR2, Homo sapiens, UniProt Q16832) | 100% |

Sample 4
Compound: COc1ccc2[nH]c3c4[nH]c5ccc(OC)cc5c4c4c(c3c2c1)C(=O)NC4=O
Effect on: binding
Concentration: 1 µM
| target | technique | remaining binding |
| --- | --- | --- |
| Mast/stem cell growth factor receptor Kit (KIT, Homo sapiens, UniProt P10721) | competition with immobilised ligand | 24% |
| Dual serine/threonine and tyrosine protein kinase (DSTYK, Homo sapiens, UniProt Q6XUX3) | – | 27% |
| Receptor-type tyrosine-protein kinase FLT3, autoinhibited (FLT3, Homo sapiens, UniProt P36888) | – | 53% |
| Serine/threonine-protein kinase 32C (STK32C, Homo sapiens, UniProt Q86UX6) | – | 84% |
| Calcium/calmodulin-dependent protein kinase type 1 (CAMK1, Homo sapiens, UniProt Q14012) | – | 80% |
| Wee1-like protein kinase 2 (WEE2, Homo sapiens, UniProt P0C1S8) | competition with immobilised ligand | 87% |
| Cyclin-dependent kinase 8 (CDK8, Homo sapiens, UniProt P49336) | competition with immobilised ligand | 87% |
| Eukaryotic translation initiation factor 2-alpha kinase 1 (EIF2AK1, Homo sapiens, UniProt Q9BQI3) | – | 86% |
| Ribosomal protein S6 kinase alpha-5, N-terminal kinase domain (RPS6KA5, Homo sapiens, UniProt O75582) | competition with immobilised ligand | 53% |

For quick reference, copied from above (sample 3):
| target | remaining binding |
| --- | --- |
| Receptor-type tyrosine-protein kinase FLT3 (FLT3, Homo sapiens, UniProt P36888, D835V) | 52% |
| Ephrin type-A receptor 8 (EPHA8, Homo sapiens, UniProt P29322) | 91% |
| Epidermal growth factor receptor (EGFR, Homo sapiens, UniProt P00533, del746-750) | 100% |
| Serine/threonine-protein kinase N2 (PKN2, Homo sapiens, UniProt Q16513) | 88% |
| Serine/threonine-protein kinase 26 (STK26, Homo sapiens, UniProt Q9P289) | 100% |
